Assay results pooled from the literature.
Numbered parts are unrelated; each lists some results of a single study. Positions count from the first letter of the parent shown.
UniProt P54756, sequence (whole entry, looked up): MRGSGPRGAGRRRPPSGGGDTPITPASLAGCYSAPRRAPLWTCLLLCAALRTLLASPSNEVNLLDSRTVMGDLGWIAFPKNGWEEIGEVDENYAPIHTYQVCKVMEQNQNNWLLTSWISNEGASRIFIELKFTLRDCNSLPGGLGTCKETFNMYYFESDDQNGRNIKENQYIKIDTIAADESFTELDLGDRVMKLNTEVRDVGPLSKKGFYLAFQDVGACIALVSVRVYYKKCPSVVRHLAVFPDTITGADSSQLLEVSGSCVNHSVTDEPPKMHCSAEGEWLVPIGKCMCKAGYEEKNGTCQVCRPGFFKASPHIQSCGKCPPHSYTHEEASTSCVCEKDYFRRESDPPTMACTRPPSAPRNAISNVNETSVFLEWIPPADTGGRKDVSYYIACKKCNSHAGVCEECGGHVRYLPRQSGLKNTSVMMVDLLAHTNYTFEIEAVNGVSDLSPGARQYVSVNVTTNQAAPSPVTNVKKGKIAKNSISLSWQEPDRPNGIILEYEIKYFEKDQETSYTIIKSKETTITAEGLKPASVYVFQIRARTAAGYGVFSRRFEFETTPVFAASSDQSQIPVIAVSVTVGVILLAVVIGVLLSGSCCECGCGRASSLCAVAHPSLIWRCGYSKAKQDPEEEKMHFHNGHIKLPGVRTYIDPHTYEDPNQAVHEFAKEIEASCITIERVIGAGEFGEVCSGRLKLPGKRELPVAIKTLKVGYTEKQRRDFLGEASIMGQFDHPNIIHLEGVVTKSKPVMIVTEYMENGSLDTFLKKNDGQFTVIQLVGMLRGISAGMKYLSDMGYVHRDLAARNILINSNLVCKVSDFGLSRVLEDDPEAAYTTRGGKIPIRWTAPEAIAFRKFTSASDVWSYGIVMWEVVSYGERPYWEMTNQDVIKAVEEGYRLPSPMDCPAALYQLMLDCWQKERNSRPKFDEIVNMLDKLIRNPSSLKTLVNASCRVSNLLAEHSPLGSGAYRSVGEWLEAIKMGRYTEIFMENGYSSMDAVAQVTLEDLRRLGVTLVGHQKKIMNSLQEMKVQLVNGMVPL

Block 1 — method: aptamer microarray, sandwich; molecule type: DNA with 2'F-ANA; matrix: in vitro; tested at: 200 nM; together with: Cy3 exosite-II aptamer, 400 nM; direction: higher = stronger binding; strand: GGTTGGTGTGGTTGG
Target: Prothrombin, mature alpha-thrombin (F2, Homo sapiens, UniProt P00734)
Notes: whole 15-mer aptamer, many near background
`2'F-ANA at 1 4 6 8 9 10 12 15`: “mean fluorescence intensity” 59.9 a.u.
For `2'F-ANA at 1 2 3 9 13 14`, “mean fluorescence intensity” read 78.3 a.u.
Under “mean fluorescence intensity”, `2'F-ANA at 1 4 7 10 11 14` is recorded as 68.1 a.u.
`2'F-ANA at 1 3 4 6 7 9 10 11 14` — result for “mean fluorescence intensity”: 53.9 a.u.
For `2'F-ANA at 1 3 4 5 6 7 10 11 12`, “mean fluorescence intensity” read 51 a.u.
`2'F-ANA at 1 2 3 4 5 9 10 11 13 14`: “mean fluorescence intensity” 53.4 a.u.
Under “mean fluorescence intensity”, `2'F-ANA at 1 4 6 7 9 14 15` is recorded as 51.9 a.u.
Under “mean fluorescence intensity”, `2'F-ANA at 2 3 5 9 10 12 15` is recorded as 57.5 a.u.

Block 2 — method: universal PBM; molecule type: double-stranded DNA, one strand shown; matrix: in vitro; tested at: not given; direction: higher = stronger binding
Target: Sal-like protein 4, full length isoform B (SALL4, Homo sapiens, UniProt Q9UJQ4-2, residues 1-616)
Notes: 8-mer, flanks averaged, mean of replicates
Target sequence (chain): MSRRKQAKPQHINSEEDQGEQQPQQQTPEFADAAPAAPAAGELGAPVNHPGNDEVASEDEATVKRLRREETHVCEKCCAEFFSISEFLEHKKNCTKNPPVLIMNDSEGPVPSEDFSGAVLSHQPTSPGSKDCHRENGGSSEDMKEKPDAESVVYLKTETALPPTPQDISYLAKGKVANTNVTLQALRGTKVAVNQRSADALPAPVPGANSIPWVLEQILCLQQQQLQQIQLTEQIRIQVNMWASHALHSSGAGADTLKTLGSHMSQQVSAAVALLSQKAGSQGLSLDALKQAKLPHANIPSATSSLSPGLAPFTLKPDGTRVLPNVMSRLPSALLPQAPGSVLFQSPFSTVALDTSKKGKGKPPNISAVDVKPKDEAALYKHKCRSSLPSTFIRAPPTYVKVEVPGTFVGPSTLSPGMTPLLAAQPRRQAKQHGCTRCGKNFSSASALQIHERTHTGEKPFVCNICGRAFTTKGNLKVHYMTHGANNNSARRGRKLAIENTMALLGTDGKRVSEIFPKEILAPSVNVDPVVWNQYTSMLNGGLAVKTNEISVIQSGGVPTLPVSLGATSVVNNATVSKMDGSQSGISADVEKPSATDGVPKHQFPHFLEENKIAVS
For `CGGGATTA`, the E-score was -0.0835.
`GGAATGCC` has an E-score of -0.213.
With `CGATCGTC` the E-score was -0.204.
`AGGGCCCA` gave an E-score of -0.386.
With `TGGTCCAA` the E-score was -0.122.
The E-score of `AATCAAGA` is reported as 0.194.
`CGTTCGAG` gave an E-score of -0.145.
`CCCGTCCG` gave an E-score of -0.401.

Block 3 — target: CEP164, C-terminal peptide (human); method: DHFR complementation, deep sequencing; matrix: yeast; baseline: wild type; direction: higher = weaker binding
Notes: single substitutions, model-inferred values
Starting sequence: PDZK1, PDZ domain 2 (human); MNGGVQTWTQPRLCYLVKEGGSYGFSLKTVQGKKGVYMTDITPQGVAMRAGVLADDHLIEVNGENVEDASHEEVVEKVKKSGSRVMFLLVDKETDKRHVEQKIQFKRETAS; partner HNRVKVYRF
`F105C`: “binding free energy change” -0.193 kcal/mol.
`V66P` — result for “binding free energy change”: 0.701 kcal/mol.
`S22M` — result for “binding free energy change”: -0.587 kcal/mol.
For `E64D`, “binding free energy change” read 0.0528 kcal/mol.
`G20N` — result for “binding free energy change”: 0.0373 kcal/mol.
`S22R` — result for “binding free energy change”: -0.178 kcal/mol.
`G21K` — result for “binding free energy change”: 0.122 kcal/mol.
`V78N`: “binding free energy change” 1.77 kcal/mol.

Other studies, line by line
With `Cn1cc(/C=C2\C(=O)Nc3ccc(S(N)(=O)=O)cc32)c2ccccc21` the remaining activity was 69.3% (Ephrin type-A receptor 5 (EPHA5, Homo sapiens, UniProt P54756); enzyme activity, inhibitor; 0.5 µM; baseline: control).

Repeated from above (block 3):
`G20N` — result for “binding free energy change”: 0.0373 kcal/mol.
For `E64D`, “binding free energy change” read 0.0528 kcal/mol.
